Measured values pooled from the literature.
Protocols differ between the studies behind these lines. ± gives the spread as reported.
SIRT6: NAD-dependent protein deacylase sirtuin-6 (SIRT6, Homo sapiens, UniProt Q8N6T7)
BLVRB: Flavin reductase (NADPH) (BLVRB, Homo sapiens, UniProt P30043)
MAPK8: Mitogen-activated protein kinase 8 (MAPK8, Homo sapiens, UniProt P45983)
fdhA: fdhA (Pseudomonas putida, UniProt P46154)
BLVRA: BLVRA (Homo sapiens, UniProt P53004)
KDM4E: Lysine-specific demethylase 4E (KDM4E, Homo sapiens, UniProt B2RXH2)
RIPK1: Receptor-interacting serine/threonine-protein kinase 1 (RIPK1, Homo sapiens, UniProt Q13546)

Sequences of proteins named here, by UniProt entry; tags and fusion partners are left off. Residues count along the entry.
UniProt Q8N6T7, whole entry: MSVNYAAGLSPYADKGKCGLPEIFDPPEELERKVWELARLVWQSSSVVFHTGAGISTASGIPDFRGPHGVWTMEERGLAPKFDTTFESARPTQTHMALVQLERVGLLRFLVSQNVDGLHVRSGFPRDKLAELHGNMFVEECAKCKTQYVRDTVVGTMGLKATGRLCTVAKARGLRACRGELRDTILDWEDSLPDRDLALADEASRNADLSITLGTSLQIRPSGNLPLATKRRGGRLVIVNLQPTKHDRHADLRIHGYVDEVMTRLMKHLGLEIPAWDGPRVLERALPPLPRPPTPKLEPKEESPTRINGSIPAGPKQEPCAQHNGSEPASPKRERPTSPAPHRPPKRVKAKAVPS
UniProt P30043, whole entry: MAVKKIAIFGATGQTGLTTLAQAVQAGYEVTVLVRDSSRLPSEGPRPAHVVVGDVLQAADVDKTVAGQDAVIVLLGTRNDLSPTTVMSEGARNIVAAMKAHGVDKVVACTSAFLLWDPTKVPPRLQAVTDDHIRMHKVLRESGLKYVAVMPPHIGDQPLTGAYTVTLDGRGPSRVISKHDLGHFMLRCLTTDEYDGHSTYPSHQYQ
UniProt P45983, 1-384 isoform 3: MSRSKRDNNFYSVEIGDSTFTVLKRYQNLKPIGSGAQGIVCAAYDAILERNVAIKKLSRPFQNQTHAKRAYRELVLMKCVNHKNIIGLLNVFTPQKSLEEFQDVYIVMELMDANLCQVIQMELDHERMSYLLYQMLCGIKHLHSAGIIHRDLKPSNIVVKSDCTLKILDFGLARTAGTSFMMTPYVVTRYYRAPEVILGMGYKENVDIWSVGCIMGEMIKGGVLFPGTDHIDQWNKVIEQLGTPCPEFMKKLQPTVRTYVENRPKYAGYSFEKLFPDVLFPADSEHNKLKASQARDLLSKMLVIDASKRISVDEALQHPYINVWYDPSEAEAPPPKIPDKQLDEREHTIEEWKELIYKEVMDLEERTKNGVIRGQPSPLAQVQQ
UniProt P46154, whole entry: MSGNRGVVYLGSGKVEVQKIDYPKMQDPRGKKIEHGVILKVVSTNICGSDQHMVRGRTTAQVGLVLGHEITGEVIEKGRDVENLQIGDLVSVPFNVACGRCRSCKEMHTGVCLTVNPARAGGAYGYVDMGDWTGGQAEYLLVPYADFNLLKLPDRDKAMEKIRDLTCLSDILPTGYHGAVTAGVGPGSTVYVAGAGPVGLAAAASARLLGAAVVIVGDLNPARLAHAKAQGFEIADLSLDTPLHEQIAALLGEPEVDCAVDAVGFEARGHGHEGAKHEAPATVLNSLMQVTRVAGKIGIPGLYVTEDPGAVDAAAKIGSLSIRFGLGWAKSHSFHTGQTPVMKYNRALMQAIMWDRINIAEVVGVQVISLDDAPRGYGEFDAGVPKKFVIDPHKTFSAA
UniProt P53004, whole entry, looked up: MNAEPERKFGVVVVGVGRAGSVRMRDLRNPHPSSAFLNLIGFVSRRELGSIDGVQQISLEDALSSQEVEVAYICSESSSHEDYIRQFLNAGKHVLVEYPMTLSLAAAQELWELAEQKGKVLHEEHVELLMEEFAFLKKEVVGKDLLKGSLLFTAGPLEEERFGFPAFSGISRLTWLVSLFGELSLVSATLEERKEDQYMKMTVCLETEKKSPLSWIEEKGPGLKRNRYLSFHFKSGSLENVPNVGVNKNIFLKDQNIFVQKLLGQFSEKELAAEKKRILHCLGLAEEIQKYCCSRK
UniProt B2RXH2, whole entry: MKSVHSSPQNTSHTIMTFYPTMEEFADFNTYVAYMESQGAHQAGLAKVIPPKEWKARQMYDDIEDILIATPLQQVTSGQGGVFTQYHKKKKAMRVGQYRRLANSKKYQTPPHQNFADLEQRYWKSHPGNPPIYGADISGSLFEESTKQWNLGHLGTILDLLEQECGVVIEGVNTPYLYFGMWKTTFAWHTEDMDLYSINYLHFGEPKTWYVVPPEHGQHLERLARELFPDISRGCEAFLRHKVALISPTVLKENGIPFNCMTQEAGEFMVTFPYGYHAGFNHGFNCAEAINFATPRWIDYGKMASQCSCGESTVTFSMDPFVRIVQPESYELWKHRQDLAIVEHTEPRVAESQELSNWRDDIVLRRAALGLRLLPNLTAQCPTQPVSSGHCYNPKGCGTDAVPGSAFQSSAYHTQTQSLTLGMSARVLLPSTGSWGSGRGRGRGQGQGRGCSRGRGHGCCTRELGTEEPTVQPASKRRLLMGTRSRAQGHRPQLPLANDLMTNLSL
UniProt Q13546, whole entry: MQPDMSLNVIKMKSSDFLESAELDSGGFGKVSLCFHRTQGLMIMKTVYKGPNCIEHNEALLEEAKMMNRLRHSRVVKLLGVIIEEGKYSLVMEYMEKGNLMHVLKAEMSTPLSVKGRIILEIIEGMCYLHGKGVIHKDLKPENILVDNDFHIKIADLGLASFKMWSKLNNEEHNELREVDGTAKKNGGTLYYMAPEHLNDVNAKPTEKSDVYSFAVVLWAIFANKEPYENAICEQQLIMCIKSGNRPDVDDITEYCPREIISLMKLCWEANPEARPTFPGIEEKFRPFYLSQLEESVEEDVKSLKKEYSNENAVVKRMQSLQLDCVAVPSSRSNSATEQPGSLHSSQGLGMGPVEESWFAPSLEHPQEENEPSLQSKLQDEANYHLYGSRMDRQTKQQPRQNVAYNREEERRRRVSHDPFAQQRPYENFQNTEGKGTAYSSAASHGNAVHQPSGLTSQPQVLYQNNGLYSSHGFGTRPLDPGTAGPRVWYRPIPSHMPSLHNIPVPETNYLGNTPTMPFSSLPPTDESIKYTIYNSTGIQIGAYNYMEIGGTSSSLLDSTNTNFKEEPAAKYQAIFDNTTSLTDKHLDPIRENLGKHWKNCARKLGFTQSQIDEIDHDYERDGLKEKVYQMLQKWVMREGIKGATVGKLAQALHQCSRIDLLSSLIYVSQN
UniProt Q9GZT9, whole entry: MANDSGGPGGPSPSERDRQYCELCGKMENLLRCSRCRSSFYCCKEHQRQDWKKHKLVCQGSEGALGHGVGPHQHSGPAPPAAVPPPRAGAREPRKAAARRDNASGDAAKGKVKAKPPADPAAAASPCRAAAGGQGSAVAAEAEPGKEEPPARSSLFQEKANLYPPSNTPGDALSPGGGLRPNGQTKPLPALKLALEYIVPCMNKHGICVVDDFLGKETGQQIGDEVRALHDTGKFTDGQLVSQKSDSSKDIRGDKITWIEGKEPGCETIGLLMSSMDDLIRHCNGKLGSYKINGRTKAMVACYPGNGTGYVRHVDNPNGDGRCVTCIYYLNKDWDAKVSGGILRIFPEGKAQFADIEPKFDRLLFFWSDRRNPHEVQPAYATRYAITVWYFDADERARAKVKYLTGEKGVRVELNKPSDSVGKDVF

`COc1cccc(/C=N/NC(=O)c2cn(-c3nonc3N)nn2)c1O` gave a remaining activity of 17.21 ± 0.04% (SIRT6; deacetylase activity, Fluor de Lys; 100 µM, added: Ac-RHKK(Ac)-AMC substrate).
The remaining activity of `O=C(O)c1cccc(-c2cc(=O)n3nc(-c4ccco4)cc3[nH]2)c1` is reported as 43% (BLVRB; concentration not given).
`Cc1cc(NC(=O)c2cccc(NC(=O)C3=CC(C)(C)CC3=O)c2)ccc1Nc1nccc(-c2cccnc2)n1` has a remaining activity of 0.346 (MAPK8; kinase activity, inhibitor; 0.5487 µM, unit not given, added: 10 mM GSH; relative to: DMSO).
With `CCc1c(-c2ccco2)nn2c(=O)cc(-c3ccc(C(=O)O)cc3)[nH]c12` the remaining activity was 37% (BLVRB; concentration not given).
For `COc1ccccc1Nc1c(C(=O)O)ccnc1C(=O)O`, the remaining activity was 76% (fdhA; inhibitor, spectrophotometric; 200 µM, counterscreen).
With `COC(=O)[C@@]1(C)C=C(C(=O)Nc2cccc(C(=O)NC34CC(Nc5nccc(-c6cccnc6)n5)(C3)C4)c2)C(=O)CC1` the remaining activity was 0.0941 fraction of control (MAPK8; kinase activity, inhibitor; 0.5487 µM, added: 10 mM GSH).
`CCc1c(-c2ccco2)nn2c(=O)cc(-c3cccc(C(=O)O)c3)[nH]c12` gave a remaining activity of 94% (BLVRA; enzyme activity, inhibitor; 10 µM, added: biliverdin IXα 25 µM).
With `COc1ccc(CNc2c(C(=O)O)ccnc2C(=O)O)cc1` the remaining activity was 29% (KDM4E; inhibitor, FDH-coupled spectrophotometry, measured: formaldehyde; 200 µM).
`Nc1nonc1-n1cc(C(=O)N/N=C/c2cccs2)nn1` gave a remaining activity of 32 ± 1.82% (SIRT6; deacetylase activity, Fluor de Lys; 100 µM, added: Ac-RHKK(Ac)-AMC substrate).
For `Cc1cc(NC(=O)c2cccc(NC(=O)C3=CC(C)(C)CCC3=O)c2)ccc1Nc1nccc(-c2cccnc2)n1`, the remaining activity was 0.0364 (MAPK8; kinase activity, inhibitor; 400 µM, unit not given, added: 10 mM GSH; relative to: DMSO).
With `O=C(O)c1ccnc(C(=O)O)c1Nc1ccc([N+](=O)[O-])cc1` the remaining activity was 0% (KDM4E; inhibitor, FDH-coupled spectrophotometry, measured: formaldehyde; 200 µM).
The remaining activity of `O=C(NC1CC=C(c2cc3c(Nc4cc5ncsc5cc4F)ncnc3s2)CC1)NC1CCCCC1` (stereo not drawn) is reported as 96 ± 2% (RIPK1; kinase activity; 1 µM; relative to: control).
The remaining activity of `O=C(O)c1ccc(Nc2c(C(=O)O)ccnc2C(=O)O)cc1` is reported as 100% (fdhA; inhibitor, spectrophotometric; 200 µM, counterscreen).
`CC(=O)N1CC=C(c2cc3c(Nc4cc5ncsc5cc4F)ncnc3s2)CC1` gave a remaining activity of 107 ± 4% (RIPK1; kinase activity; 1 µM; relative to: control).
`O=C(O)c1ccc(-c2nc(-c3ccccc3F)c3sccn23)cc1` has a remaining activity of 96% (BLVRA; enzyme activity, inhibitor; 10 µM, added: biliverdin IXα 25 µM).
`COc1ccc(Nc2c(C(=O)O)ccnc2C(=O)O)cc1` gave a remaining activity of 100% (Egl nine homolog 1 (EGLN1, Homo sapiens, UniProt Q9GZT9); inhibitor, HTRF; 400 µM).
`Cc1c(-c2ccccc2)nn2c(=O)cc(-c3cccc(-c4nnn[nH]4)c3)[nH]c12` gave a remaining activity of 112% (BLVRA; enzyme activity, inhibitor; 10 µM, added: biliverdin IXα 25 µM).
The remaining activity of `CSc1ccccc1Nc1c(C(=O)O)ccnc1C(=O)O` is reported as 80% (fdhA; inhibitor, spectrophotometric; 200 µM, counterscreen).

Excerpt of the above:
`CCc1c(-c2ccco2)nn2c(=O)cc(-c3cccc(C(=O)O)c3)[nH]c12` gave a remaining activity of 94% (BLVRA; enzyme activity, inhibitor; 10 µM, added: biliverdin IXα 25 µM).
For `COc1ccccc1Nc1c(C(=O)O)ccnc1C(=O)O`, the remaining activity was 76% (fdhA; inhibitor, spectrophotometric; 200 µM, counterscreen).
`O=C(O)c1ccc(-c2nc(-c3ccccc3F)c3sccn23)cc1` has a remaining activity of 96% (BLVRA; enzyme activity, inhibitor; 10 µM, added: biliverdin IXα 25 µM).
